# Measured values from different studies.
# Numbers after ± are the reported error.
Compound,test,system,setting,scale,AUC(0-inf)
O=C(c1nc2n(n1)[C@H](c1ccccc1)C[C@@H]2F)C1CC1,geometric LS mean,"human, fasted, plasma","oral, 75 mg single dose",,13.2 µg·h/mL
Cn1c(=O)oc2ccc(-c3ccc(C[C@@H](C#N)NC(=O)[C@@H]4CNCCCO4)cc3)cc21,,"human, mild renal impairment, plasma","oral, 25 mg single dose, mean",,3.61 µg·h/mL
Cn1nnc2c(C(N)=O)ncn2c1=O,,"human patients, plasma","oral, 20 mg/m2, day 5, dose level DL2, median, together with: talazoparib 400 µg/m2",,3.17 µg·h/mL
COC(=O)N[C@@H](C)CNc1nccc(-c2cn(C(C)C)nc2-c2cc(Cl)cc(NS(C)(=O)=O)c2F)n1,,"human, plasma","oral, 50 mg, geometric mean, together with: diltiazem 240 mg once daily",,3.51 µg·h/mL
CN(CC#N)C(=O)C[C@H](Nc1nc2ccccc2[nH]1)c1cccc(C(F)(F)F)c1,,human,"intravenous infusion, 3 mg/kg, 1 mg/mL formulation",,23.9 ± 5.25 µg·h/mL
C[C@H]1CN(C(=O)CC#N)[C@]12CCN(c1ncnc3[nH]ccc13)C2,,"healthy human, plasma","oral, 3 mg single, mean",,0.0702 µg·h/mL
CCCCOc1nc(N)c2c(n1)N(Cc1cccc(CN3CCCC3)c1)CC(=O)N2,,human,"oral, 2 mg, mean",,0.0176 µg·h/mL
CCCn1cc(C)c2c(=O)[nH]c(-c3cc(S(=O)(=O)N4CCN(CC)CC4)ccc3OCC)nc21,,"human, plasma","oral, 100 mg, together with: alcoholic beverage 0.5 g/kg",,0.303 ± 0.19 µg·h/mL
CCNCCCNC/C=C\CNCCCNCC,LC-MS/MS,"human cancer patients, plasma","intravenous infusion 60 min, 50 mg, median, cycle 1",,0.08 µg·h/mL
NC[C@@]1(CC(=O)O)[C@@H]2CC[C@H]3C[C@@H]2[C@@H]1C3,,"human, severely renal impairment, plasma","dose not given, geometric least squares mean",,6.66 µg·h/mL
Cc1cc(C)c(CNC(=O)c2cc(Cl)c3c(c2C)O[C@@](C)([C@H]2CC[C@H](N(C)C)CC2)O3)c(=O)[nH]1,,"healthy male human, plasma","oral, 25 mg, alone, before fluconazole",,0.686 µg·h/mL
O=C(O)c1cc(/N=N/c2ccc(S(=O)(=O)Nc3ccccn3)cc2)ccc1O,LC-MS,"human, plasma","oral, 1000 mg, day 1",arithmetic mean,67.9 µg·h/mL
Cn1cncc1[C@@](N)(c1ccc(Cl)cc1)c1ccc2c(c1)c(-c1cccc(Cl)c1)cc(=O)n2C,,human patients,"oral, 300 mg/m2, first dose, cycle 1, expanded cohort, median",,6.85 µg·h/mL
Cn1cncc1[C@@](N)(c1ccc(Cl)cc1)c1ccc2c(c1)c(-c1cccc(Cl)c1)cc(=O)n2C,,"healthy human, plasma","oral, 50 mg",,0.417 µg·h/mL
CC(C)c1nc(N(C)S(C)(=O)=O)nc(-c2ccc(F)cc2)c1/C=C/[C@@H](O)C[C@@H](O)CC(=O)O,,"healthy human subjects, plasma","oral, 10 mg, geometric mean, together with: fruquintinib 5 mg",,0.0293 µg·h/mL
CC(C)(C)[C@@H]1NC(=O)O[C@@H]2CCC[C@H]2OC/C=C/C(F)(F)c2nc3ccccc3nc2O[C@@H]2C[C@@H](C(=O)N[C@]3(C(=O)NS(=O)(=O)C4(C)CC4)C[C@H]3C(F)F)N(C2)C1=O,,"healthy human subjects, plasma","oral, dose not given, together with: carbamazepine twice daily",,1.29 µg·h/mL
CC[C@H](Nc1ncnc2[nH]cnc12)c1oc2ccccc2c(=O)c1-c1cccc(F)c1,,"human patients, plasma","oral, 400 mg twice daily, together with: romidepsin 12 mg/m2",,8.05 ± 7.28 µg·h/mL
C[C@@H](Oc1ccc(S(C)(=O)=O)cc1C(=O)N1C[C@@H]2C[C@]2(c2cc(C(F)(F)F)on2)C1)C(F)(F)F,,"healthy young humans, plasma","oral, 10 mg single dose",,3.8 µM·h
Cn1cncc1-c1c(F)cncc1NC(=O)c1c(N)nn2cc(F)cnc12,,"human patients, plasma","oral, 90 mg",,1.83 µg·h/mL
N#CN1C[C@H](n2nc(-c3ccc(Oc4ccc(Cl)cn4)cc3)c(C(N)=O)c2N)CCC12CC2,,"human, fasted, plasma","oral, 600 mg",,22 ± 7.83 µg·h/mL
Cl.[2H]C([2H])([2H])CC(=O)c1cnc(NC(=O)C2CC2)cc1Nc1cccc(-c2ncn(C([2H])([2H])[2H])n2)c1OC,geometric mean,human,"oral, 40 mg twice daily, day 1, fed, liquid, multiple dose",,2.63 µg·h/mL
C=CC(=O)NC1CCN(c2ncc3ncnc(Nc4ccc(Oc5ccc6c(c5)ncn6C)c(C)c4)c3n2)CC1,,"human, male, plasma","oral, 240 mg, fed, adjusted geometric mean",,60 µM·h
Cc1ccc(C)c(OCCCC(C)(C)C(=O)O)c1,,"human, plasma","oral, 600 mg single, after lopinavir/ritonavir, geometric mean, together with: lopinavir/ritonavir 400/100 mg twice daily",,62 µg·h/mL
CC1(COc2ccc3c(c2)ncn3-c2ccc3cccc(N4CCC(N)CC4)c3n2)COC1,,"human patients, recurrent/progressive HGG or DIPG, serum","oral, 170 mg/m^2, day 1, median",,9.7 µM·h
COc1ccc([C@@H]2CN(C(=O)[C@@H](O)CO)C[C@@]2(C)[C@@H](C)O)cc1OC1CN(c2ccc(C)cn2)C1,,"healthy human, plasma","oral, 20 mg",,4.74 µg·h/mL
CC(=O)c1cc(C(=O)N[C@@H](C)Cn2ccc(-c3ccc(C#N)c(Cl)c3)n2)[nH]n1,,"healthy male human, plasma","intravenous infusion, 100 µg 14C-labelled, 15 min infusion, microtracer, geometric mean",,20400 h·pg eq/mL
Nc1ccn([C@@H]2O[C@H](CO)[C@@H](O)C2(F)F)c(=O)n1,HPLC-UV,"human, plasma","intravenous, 800 mg/m^2, median, after paricalcitol",,16.6 µg·h/mL
CNC(=O)c1c(C)oc2cc(Oc3ncnc4cc(OC)c(OC)cc34)ccc12,,"human, mild hepatic impairment (NCI), plasma","oral, 2 mg, single dose",,5.29 µg·h/mL
C=CC(=O)N(C)CCOc1c(N)ncnc1-c1cc(F)cc(NC(=O)c2ccc(C3CC3)cc2F)c1C,,"human, whole blood","oral, 600 mg, single ascending dose",,1.18 µg·h/mL
COc1ccc(F)cc1C(=O)NCc1ccc(-c2nn([C@@H](C)C(F)(F)F)c(N)c2C(N)=O)cc1,,"human, plasma","oral, 200 mg single dose, given alone",,80.6 µg·h/mL
Cc1cc(Nc2cc3ncccc3c(N[C@@H]3C[C@H]4CC[C@@H](C3)N4CCC#N)n2)n[nH]1,,"human, plasma","100 mg single dose, mean",,0.018 µg·h/mL
O=C(O)CCC(=O)O.[2H]C([2H])([2H])Oc1cc(C)c2[nH]ccc2c1CN1CC[C@@H](C2CC2)C[C@H]1c1ccc(C(=O)O)cc1,"LC-MS/MS, geometric mean","human, plasma","50 mg, single dose, fasting",,32.9 µg·h/mL
CN[C@@H](C)C(=O)N[C@H]1CN(S(=O)(=O)c2cccc(S(=O)(=O)N3CC[C@H]4CC[C@@H](C(=O)NC(c5ccccc5)c5ccccc5)N4C(=O)[C@@H](NC(=O)[C@H](C)NC)C3)c2)CC[C@H]2CC[C@@H](C(=O)NC(c3ccccc3)c3ccccc3)N2C1=O,"LC-MS/MS, noncompartmental","human, plasma","30 mg, cycle 1 day 1",,0.855 ± 0.4 µg·h/mL
N[C@@H]1c2cccnc2[C@H](OC(=O)N2CCC(n3c(=O)[nH]c4ncccc43)CC2)CC[C@H]1c1cccc(F)c1F,,"human, plasma","oral, 75 mg single dose, alone, geometric mean, itraconazole DDI study",,4.65 µg·h/mL
N[C@]1(C(=O)O)[C@H]2[C@@H](C[C@@H]1F)[C@@H]2C(=O)O,,"human, plasma","oral, 10 mg single dose, fasted",,0.513 µg·h/mL
C[C@H](Oc1ccc(Br)cc1-c1ccon1)C(=O)O,,"healthy male humans, plasma","oral, 600 mg once daily, day 1",,148 µg·h/mL
CC(C)[C@@H]1CC[C@@H](C)C[C@H]1OC(=O)O[C@@H](C)OC(=O)[C@H]1[C@@H]2C[C@H](F)[C@@](N)(C(=O)O)[C@@H]21,,"human, plasma","oral, 10 mg single dose, fasted",,0.0247 µg·h/mL
C#C[C@]1(CO)O[C@@H](n2cnc3c(N)nc(F)nc32)C[C@@H]1O,,"human, plasma","oral, 400 mg, single dose, geometric mean",,49 µM·h
NC(=O)c1[nH]cnc1N,,"human patients, plasma","IV infusion over 1 h, 1000 mg/m^2 DTIC, cycle 2 day 1, co-administered with co-drug",,8.45 µg·h/mL
CCN1CCN(Cc2ccc(Nc3ncc(F)c(-c4cc(F)c5nc(C)n(C(C)C)c5c4)n3)nc2)CC1,,"fasted healthy human subjects, plasma","oral, 150 mg, 3 × 50 mg capsule",,3.13 µg·h/mL
NC(CO)(CO)CCc1ccc(Sc2cccc(OCc3ccccc3)c2)cc1Cl,,"human male, whole blood","oral, 3 mg, given alone",,0.11 µg·h/mL
N#CCNC(=O)c1ccc(-c2ccnc(Nc3ccc(N4CCOCC4)cc3)n2)cc1,,"healthy human volunteers, plasma","oral, 200 mg single dose, day 1, fasted, given alone",,3.42 µg·h/mL
CC(=O)O[C@H]1C(=O)[C@@]2(C)[C@H]([C@H](OC(=O)c3ccccc3)[C@]3(O)C[C@H](OC(=O)[C@H](O)[C@@H](NC(=O)c4ccccc4)c4ccccc4)C(C)=C1C3(C)C)[C@]1(OC(C)=O)CO[C@@H]1C[C@@H]2O,noncompartmental analysis,"human cancer patients, plasma","intravenous infusion, 60 mg/m^2, cycle 1 day 1, together with: daily oral co-medication",,3 µg·h/mL
CC(C)n1c(/C=C/C(O)CC(O)CC(=O)O)c(-c2ccc(F)cc2)c2ccccc21 (stereo not drawn),,human,"oral, 20 mg, alone, control phase",,0.266 ± 0.086 µg·h/mL
CC(C)c1nc(N(C)S(C)(=O)=O)nc(-c2ccc(F)cc2)c1/C=C/[C@@H](O)C[C@@H](O)CC(=O)O,,"human, plasma","oral, 20 mg, day 2, geometric mean, alone",,0.0486 µg·h/mL
CNC(=O)n1ccc2cc(Oc3ccnc(NC(=O)c4ccc(C5CCN(CCO)CC5)cc4)c3)c(OCCOC)cc21,,"healthy human, plasma","oral, 35 mg, geometric mean, together with: rabeprazole 20 mg",,0.117 µg·h/mL
C[C@H](O)c1cc(C(=O)N[C@@H](C)Cn2ccc(-c3ccc(C#N)c(Cl)c3)n2)n[nH]1,,"human, fasted, plasma","oral solution, 300 mg 14C-darolutamide, geometric mean",,38300 ng⋅h/mL
CN1C(=O)[C@@H](NC(=O)c2nnc(Cc3ccccc3)[nH]2)COc2cccnc21,,"healthy human, fasted, plasma","oral, 30 mg single dose, geometric mean",,5.57 µg·h/mL
CN(C)C(=O)c1cc2cnc(Nc3ccc(N4CCNCC4)cn3)nc2n1C1CCCC1,,"human, moderate renal impairment, plasma","oral, 400 mg, geometric mean",,7.96 µg·h/mL
Cc1[nH]c(/C=C2\C(=O)Nc3ccc(F)cc32)c(C)c1C(=O)N[C@H]1CCN(C(=O)N(C)C)C1,,"human patients, plasma","oral, 150 mg single dose, together with: everolimus 5 mg",,4.65 ± 2.98 µg·h/mL
C[C@@H](N)c1cc(Cl)ccc1Cn1c(=S)[nH]c(=O)c2[nH]ccc21,,"human, both sexes, matched healthy controls, plasma","oral, 2.5 mg single dose, geometric mean",,0.291 µM·h
CC(C)C[C@H](NC(=O)[C@H](CC(C)C)NC(=O)[C@H](Cc1c[nH]c2ccccc12)NC(=O)[C@H](CCC(=O)O)NC(=O)[C@@H](NC(=O)[C@H](Cc1ccccc1)NC(=O)[C@H](CCC(=O)O)NC(=O)[C@H](CCCCNC(=O)COCCOCCNC(=O)COCCOCCNC(=O)CC[C@H](NC(=O)CCCCCCCCCCCCCCCCCCC(=O)O)C(=O)O)NC(=O)[C@H](C)NC(=O)[C@H](CCCCN)NC(=O)[C@H](CCCCN)NC(=O)[C@H](CCC(=O)O)NC(=O)[C@H](CC(=O)O)NC(=O)[C@H](CC(C)C)NC(=O)[C@H](Cc1ccc(O)cc1)NC(=O)[C@H](CCCCN)NC(=O)[C@H](CO)NC(=O)[C@H](Cc1ccc(O)cc1)NC(=O)[C@H](CC(=O)O)NC(=O)[C@H](CO)NC(=O)[C@@H](NC(=O)[C@H](Cc1ccccc1)NC(=O)[C@@H](NC(=O)CNC(=O)[C@H](CCC(N)=O)NC(=O)C(C)(C)NC(=O)[C@@H](N)Cc1c[nH]cn1)[C@@H](C)O)[C@@H](C)O)C(C)C)C(=O)N[C@@H](CCC(=O)O)C(=O)NCC(=O)NCC(=O)N1CCC[C@H]1C(=O)N[C@@H](CO)C(=O)N[C@@H](CO)C(=O)NCC(N)=O,,"human, plasma","subcutaneous, 16 mg once weekly, week 20, geometric mean",,1570 µg·h/mL
O=C(O)c1ccccc1O,,"humans, both sexes, plasma","oral, 650 mg aspirin, with alcohol, geometric mean",,238 µg·h/mL
CC1(C)CC[C@]2(NC(=O)C(C)(F)F)CC[C@]3(C)[C@H](C(=O)C=C4[C@@]5(C)C=C(C#N)C(=O)C(C)(C)[C@@H]5CC[C@]43C)[C@@H]2C1,,human,"dose not given, together with: gemfibrozil",baseline: compound alone,no effect

# Repeated from above:
Compound,test,system,setting,scale,AUC(0-inf)
O=C(O)CCC(=O)O.[2H]C([2H])([2H])Oc1cc(C)c2[nH]ccc2c1CN1CC[C@@H](C2CC2)C[C@H]1c1ccc(C(=O)O)cc1,"LC-MS/MS, geometric mean","human, plasma","50 mg, single dose, fasting",,32.9 µg·h/mL
Cc1cc(Nc2cc3ncccc3c(N[C@@H]3C[C@H]4CC[C@@H](C3)N4CCC#N)n2)n[nH]1,,"human, plasma","100 mg single dose, mean",,0.018 µg·h/mL
CN[C@@H](C)C(=O)N[C@H]1CN(S(=O)(=O)c2cccc(S(=O)(=O)N3CC[C@H]4CC[C@@H](C(=O)NC(c5ccccc5)c5ccccc5)N4C(=O)[C@@H](NC(=O)[C@H](C)NC)C3)c2)CC[C@H]2CC[C@@H](C(=O)NC(c3ccccc3)c3ccccc3)N2C1=O,"LC-MS/MS, noncompartmental","human, plasma","30 mg, cycle 1 day 1",,0.855 ± 0.4 µg·h/mL
Cn1nnc2c(C(N)=O)ncn2c1=O,,"human patients, plasma","oral, 20 mg/m2, day 5, dose level DL2, median, together with: talazoparib 400 µg/m2",,3.17 µg·h/mL
C[C@H]1CN(C(=O)CC#N)[C@]12CCN(c1ncnc3[nH]ccc13)C2,,"healthy human, plasma","oral, 3 mg single, mean",,0.0702 µg·h/mL
